# Measured values pooled from the literature.
# Each numbered part is a random draw from the data of one study; scales do not carry over between parts.

# Set 1
# Target: Histone acetyltransferase KAT6A, winged helix 2, GST fusion (KAT6A, Homo sapiens, UniProt Q92794, residues 85-181)
# Technique: protein binding microarray
# Molecule type: double-stranded DNA, one strand shown
# Medium: in vitro
# Tested at: not given
# Setting: 8-mer, flanks averaged, mean of 2 arrays, mostly near background
# Reference: not given
# Reading: higher = stronger binding
# Target sequence (chain): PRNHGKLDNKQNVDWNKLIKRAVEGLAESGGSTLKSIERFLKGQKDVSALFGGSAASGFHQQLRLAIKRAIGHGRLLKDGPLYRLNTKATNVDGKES
Oligonucleotide,E-score
ATTAAAAC,0.193
ATAAAGGC,-0.0167
CATTCTCG,-0.136
AGTATAGA,0.0124
ATGCTTCC,0.0453
ATCCTACC,-0.0978
CCCTGAAG,0.046
CCATACTC,-0.0296
CCCCGGGA,0.0488
CTAAATAC,-0.0898
AACAACTT,-0.00951
ACCCAATC,-0.0217
CTAGACAC,-0.0574
CAGGGGAG,-0.0373
AACAAGTG,-0.0688
GGGCCCCA,0.108
GGGATCCA,-0.0996
CAAGATCG,0.129
GGGAGCCC,-0.0782
ACGGATAC,-0.0676
ATGGAGCG,0.129
AAGTATTC,-0.0687
CGGTATGC,0.0291
GGACACCC,-0.0521
CCCACTGC,0.0771

# Set 2
# Target: Ras GTPase-activating protein-binding protein 1, full length (G3BP1, Homo sapiens, UniProt Q13283)
# Chain of UniProt Q13283 (whole entry, looked up): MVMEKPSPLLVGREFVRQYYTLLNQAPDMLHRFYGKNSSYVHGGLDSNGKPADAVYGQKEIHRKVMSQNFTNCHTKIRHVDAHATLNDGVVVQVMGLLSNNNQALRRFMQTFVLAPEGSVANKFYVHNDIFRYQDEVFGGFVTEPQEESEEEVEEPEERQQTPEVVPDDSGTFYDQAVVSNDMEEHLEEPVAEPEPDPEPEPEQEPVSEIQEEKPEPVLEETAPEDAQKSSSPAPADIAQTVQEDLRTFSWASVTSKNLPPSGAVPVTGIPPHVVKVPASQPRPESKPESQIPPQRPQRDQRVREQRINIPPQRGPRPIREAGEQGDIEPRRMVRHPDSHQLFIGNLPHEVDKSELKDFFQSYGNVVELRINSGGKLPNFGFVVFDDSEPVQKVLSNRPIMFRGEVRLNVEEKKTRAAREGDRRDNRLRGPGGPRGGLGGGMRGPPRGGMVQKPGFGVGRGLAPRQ
# Technique: RNA Bind-n-Seq
# Molecule type: RNA
# Medium: in vitro
# Tested at: 200 nM
# Setting: whole 134-nt RNA, ends assumed
# With: 150 mM LiCl
# Reference: input library
# Reading: higher = stronger binding
# Each molecule: 7-deaza-guanosine replaces G
Oligonucleotide,log2 enrichment
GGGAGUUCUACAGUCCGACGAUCUGUGCUACACAUCGUAUGUACCGAAUCGGGGAAAAAAAGGGAAAAAAAGGGGAAAAAAAGGGAAAGUAUUAUGUUACGCCGUUCGGAUCUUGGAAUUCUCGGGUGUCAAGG,0.468
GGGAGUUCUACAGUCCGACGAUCAAGUCCUGUGCUACACAUCGUAUGUACCGAAUCGGGGAAAGGGGAAAGGGGUGGGGAAAGUAUUAUGUUACGCCGUUCGGAUCUGCACUUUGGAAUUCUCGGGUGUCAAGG,0.187
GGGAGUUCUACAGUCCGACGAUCAAGUCCUGUGCUACACAUCGUAUGUACCGAAUCGGGAAAAGGAAAAGGGGAAAAGGAAAGUAUUAUGUUACGCCGUUCGGAUCUGCACUUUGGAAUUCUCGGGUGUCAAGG,-0.333
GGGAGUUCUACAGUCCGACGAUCUAACUUUAGAGGAGGAUCUGAUGGAUAUGGCAGUCGACGUGGAUUUGGGGAUGGCUAUAAUGGGUAUGGAGGAGGACCUGGAGGUGGCAAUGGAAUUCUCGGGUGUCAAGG,-0.357
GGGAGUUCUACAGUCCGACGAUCCACAGACAACACGCACCCACACAGACUCAGAGGGAAGGGGUUGGGAUGGGGACAGGGUGCACAGCAGGGCGGGGUAGGACCCCAGCCCCUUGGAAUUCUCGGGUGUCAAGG,0.135
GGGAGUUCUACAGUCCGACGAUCUAACUUUAGAGGAGGAUCUGAUGGAUAUGGCAGUGGACGUGGAUUUGGGGAUGGCUAUAAUGGGUAUGGAGGAGGACCUGGAGGUGGCAUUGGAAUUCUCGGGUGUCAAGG,-0.0197
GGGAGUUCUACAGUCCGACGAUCUGGACUUGCGGGUUCCCAUCUGGGACCAGGACAUACAGUUUCUCCCAGGAUCACAGAAGCUUGUCACCUGCACAGGGUACCACCAGGUAAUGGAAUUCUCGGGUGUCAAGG,-0.417
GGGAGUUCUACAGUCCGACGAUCAAGUCCUGUGCUACACAUCGUAUGUACCGAAUCGGAAAAAAAGGAAAAAAAGGAGGAAAGUAUUAUGUUACGCCGUUCGGAUCUGCACUUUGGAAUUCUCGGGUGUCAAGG,-0.772
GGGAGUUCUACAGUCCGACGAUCUCCUGUGCUACACAUCGUAUGUACCGAAUCGGGAAAAAAGGGGAAAAAAGGGAAAAAAGGAAAGUAUUAUGUUACGCCGUUCGGAUCUGCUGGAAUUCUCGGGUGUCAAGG,-0.125
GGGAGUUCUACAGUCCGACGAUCCCUGUGCUACACAUCGUAUGUACCGAAUCGGGGAAAAAGGGGAAAGGGGUUUUUUUGGGGAAAGUAUUAUGUUACGCCGUUCGGAUCUGCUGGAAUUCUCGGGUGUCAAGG,0.952
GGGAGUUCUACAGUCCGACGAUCAGUCCUGUGCUACACAUCGUAUGUACCGAAUCGGGCCCCCGGGCCCCCGGCCCCCGGAAAGUAUUAUGUUACGCCGUUCGGAUCUGCACUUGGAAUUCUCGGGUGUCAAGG,-0.116

# Set 3
# Target: RING finger protein unkempt homolog, zinc fingers 1-6, GST-SBP tag (UNK, Homo sapiens, UniProt Q9C0B0, residues 30-357)
# Technique: RNA Bind-n-Seq
# Molecule type: RNA
# Medium: in vitro
# Tested at: not given
# Setting: RNA with constant flanks, human and mouse sites, ends assumed
# Reference: input RNA pool
# Reading: higher = stronger binding
# Residues (chain): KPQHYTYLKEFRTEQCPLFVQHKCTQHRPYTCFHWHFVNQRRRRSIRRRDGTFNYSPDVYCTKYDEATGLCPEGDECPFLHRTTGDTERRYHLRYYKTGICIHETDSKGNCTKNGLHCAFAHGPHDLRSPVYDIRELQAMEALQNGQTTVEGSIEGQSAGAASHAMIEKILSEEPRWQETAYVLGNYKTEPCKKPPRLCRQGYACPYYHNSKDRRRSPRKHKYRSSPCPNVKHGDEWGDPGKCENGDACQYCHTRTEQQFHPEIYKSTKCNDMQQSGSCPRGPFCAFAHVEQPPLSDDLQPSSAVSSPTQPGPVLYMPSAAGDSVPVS
Oligonucleotide,bound/input enrichment [ratio]
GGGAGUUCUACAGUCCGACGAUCCUUAAUGGCUUGGAACCAGAAAAUAUCCACAUGAUGAUAGGCUCAAUGACAAUCGACUGUUUGGGAAUCCUGAAUGACCUCUCUGACUGUGAAGAUAAACUCUUUCCUAUUGGAUACCAGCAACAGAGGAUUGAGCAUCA,0.225
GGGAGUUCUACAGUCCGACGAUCAGUGACGAGGAUGGGUGACUGUCAGCCCUGGCUCCUUGUCCAUCAGACUUCCACGACAGUGUUGUGUGCACUUCAGCACGAGCAGGGUUGUUCUUCCCGUUAUUGUUGGUUUUGAGACAGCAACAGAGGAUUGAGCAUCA,0.0974
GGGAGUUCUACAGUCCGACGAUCUGUGGAAUCAAGCACCUUCACUCUGCUGGAAUUAUUCAUCGGGACUUAAAGCCUAGUAAUAUAGUAGUCAAAUCAGACUGCACUUUGAAGAUUCUUGAUUUUGGACUGGCGAGGACUGCACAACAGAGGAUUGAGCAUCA,0.558
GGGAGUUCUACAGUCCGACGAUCUGUUUUAAUUUAUUUGAGACUGGAUUUUAUCACUCAGAGUUAAACCCCAUGUGCAGCGAAGAAUCCGAAAGACCAGCAAAGAGAUUGAAGAUGGGCAUUGCUGUCCCCGAAUCCUUUAUGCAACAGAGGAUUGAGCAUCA,0.156
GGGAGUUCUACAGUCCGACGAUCUGUGUGAUCUGUGAUUCCUACGUGCGUCCCUGCACCCUGGUCCGCAUAUGUGAUGAGUGUAACUAUGGAUCUUACCAGGGCCGGUGUGUAAUCUGUGGCGGCCCCGGAGUCUCCGAUGCCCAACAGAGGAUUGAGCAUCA,0.116
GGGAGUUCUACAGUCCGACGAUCGGUGAGAGUAUCAUGGUUGAACUCGCAGCUGGACCUUUUGGAAAUAAUGAAAAGUUGCCAGUAGUCAUCAGAGUACCAAAACUGAUCUAUUUCUCAGUAAUGAGUGUGUGCCUCAUGCCUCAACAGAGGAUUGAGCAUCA,0.167
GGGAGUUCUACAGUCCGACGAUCCAGUCCAUGGAAUCUUGUUGCAUUUUGGGGAGUUGUUUUGUGUCUUUACAUCUUGGAGUCUCUUAUACCCUUUGAUUUUUCUGGAGCCCAUGCCUUCCCACACAAAACAAGACAUGUAUGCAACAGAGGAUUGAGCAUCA,0.212
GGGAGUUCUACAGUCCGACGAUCUUUAAAACAAAAAAUAUAUUAAUUUACAUAUAAGGGGAUUUAUGAUAAUUGUAUUAUAUCUAGUUGAGUUUCAUAUUCUUAAUUAGCCUGUAAAUAAAAAUGACAUAUUCUACAUUAAAGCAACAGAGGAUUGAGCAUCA,1.23
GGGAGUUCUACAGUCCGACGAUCCUCAUGCAGAAGGAUUUUGUCUCCCCGGACUAUUUGAAGAAGUGGUCAGCUAAAGGAAUCCAGGUUGUGAGUUGGACUGUCAAUACCUUUGAUGAAAAGAAUUACUACGAGUCCCACCUUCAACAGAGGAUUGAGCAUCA,0.102
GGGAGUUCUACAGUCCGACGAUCUCCGUAAACACAUUUUUGUUCUUAGUCUAUCUCUUGUACAAACGAUGUGCUUUGAAGAUGUUAGUGUAUAACAAUUGAUGUUUGUUUUCUGUUUGAUUUUAAACAGAGAAAAAAUAAAAGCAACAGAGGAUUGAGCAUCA,1.32
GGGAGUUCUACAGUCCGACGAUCAUUCAUUUUUAAUUUUAAUUUUAUUUUAUACAAUGUGUAGACAGUUCCCUGUUCUCUGCAUUUAGAAGUAUACACAAUAUAAAUCUGUUAAUUCUGUAAGUAAUUUUUAUAAUUAUGAUGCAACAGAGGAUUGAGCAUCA,33.6

# Set 4
# Target: Hepatocyte nuclear factor 3-alpha (Foxa1, Mus musculus, UniProt P35582, residues 1-468, full length assumed)
# Technique: EMSA with sequencing
# Molecule type: double-stranded DNA, one strand shown
# Medium: in vitro
# Tested at: 10 and 20 nM
# Setting: whole designed probe, mean of two concentrations, ends assumed
# Reference: negative control set to 0
# Reading: higher = stronger binding
# Residues (chain): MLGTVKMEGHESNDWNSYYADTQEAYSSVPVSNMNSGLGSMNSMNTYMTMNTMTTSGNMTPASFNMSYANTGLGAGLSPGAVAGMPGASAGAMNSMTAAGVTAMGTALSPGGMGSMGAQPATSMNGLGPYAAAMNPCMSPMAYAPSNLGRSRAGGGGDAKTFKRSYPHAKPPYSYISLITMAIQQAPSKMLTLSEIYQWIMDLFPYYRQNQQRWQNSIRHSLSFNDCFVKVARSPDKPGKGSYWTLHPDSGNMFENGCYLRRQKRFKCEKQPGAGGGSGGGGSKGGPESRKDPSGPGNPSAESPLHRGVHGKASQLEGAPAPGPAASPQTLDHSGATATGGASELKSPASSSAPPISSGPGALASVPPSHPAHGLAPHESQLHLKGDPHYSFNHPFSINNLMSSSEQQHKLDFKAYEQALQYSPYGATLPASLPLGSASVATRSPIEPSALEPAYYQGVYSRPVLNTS
Oligonucleotide,normalised bound fraction
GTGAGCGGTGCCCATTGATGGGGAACTAACTCCCAAAAAACACACAGAAAGCCATTACAAAGCATAAAACAGACCAAGGAAAAATTAATAGCACTTGAACTTCCCACCAGATCCCAAAGTAAACATGAAGCCCATAGTGTCACAGTCAACACTTCAAAAAACTCCTTCAGGTGGGCCCCAAGATCTCCATACATGGGAAAACCATGTCAGAAAGATGAATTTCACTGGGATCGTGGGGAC,0.426 ratio
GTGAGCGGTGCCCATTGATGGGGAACAAATAAGAAGCACATGTTAACTATTTAAAGTGCCTGGGAGTGTGATTCTTAATAACAAGACCAGGTGACTGCTAACAAGCCCAGGTGAGAAAAGTAAACAAGCTATGACTCAAACCCAGTCTACCTATTGAATTACGAACTTGCTTCCGAAGAACCAGACAGAGAGTCCTAAACCGGTCAAAAGCAAAGCAGGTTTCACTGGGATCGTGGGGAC,0.485 ratio
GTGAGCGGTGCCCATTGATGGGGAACATGAAACTGGTCCCTGGTGCCAAAAAGGTTGGGAACTGCTGACGTAGTGGATAAAGGGAACAGAGGTAAATAGACATTTAGTGTGAGGTTTCATGTTTACTTAGCTACGAATTAGGCTGTGTTTGCTGTTTGCTGTCACTTTAGGTGTCAGAGGTTAAAATCTCTGGTGTCCTTGTTTCTGTCTCTCCTGTTGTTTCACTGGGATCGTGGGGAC,0.497 ratio
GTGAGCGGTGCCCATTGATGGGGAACCTCATTCCTTGCTTCCGCCAATAATCTGACTAGTAAAGAAGTCACTGCATGCCACAAATTGTCAGTGCTGACTTCCTCAACAAGGAAGTATAAGTAAATAAATAGAGTGACTCAGTTAATATATATGCAAATTCCATCTTGAGAATACCAACTCCTGATGCCAACTGATTGTCAGTCATGGCTACAACAGGAGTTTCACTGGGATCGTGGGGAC,0.418 ratio
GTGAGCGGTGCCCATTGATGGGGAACCCACAGCTTCAATCATTTTCAGAGCCTGAGTTAGTCTACAAATGGGTTGAGAACACGTTTTTTTTTCACTCAGGCGAAAAGTCATTTCCAAAGTAATCTAAGACTTTAAACTGGGAATTAAGGGCAAGATCAGGGATGAGGAAGTTAATACCATATTGAAAAGTTCTAAGGAAGAAGGCCATGTAACGAGATATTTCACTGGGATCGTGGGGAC,-0.0862 ratio
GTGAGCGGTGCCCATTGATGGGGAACCCTAGGACTGTTCCTCCCAGAGCGAGAAAGACCTCCAGGCCCTGAGCCGTGCCAGGAAATGGCCCTAGGATTGCCTCATTAAACACGAAGGGCTATTTACACTGGAGAAACAAATATTTATCTCTGGATCGAGAAGGAGGAAGGGCTTTGGAACCCCAGTCTGGCTCAGCCCTGCCTGGTAGGAGGGGGAGGATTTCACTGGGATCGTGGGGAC,0.188 ratio

# Excerpt of the above (set 1):
Oligonucleotide,E-score
GGGAGCCC,-0.0782
CCCTGAAG,0.046
CTAAATAC,-0.0898
ATGCTTCC,0.0453
ATAAAGGC,-0.0167
